Results gathered from unrelated publications.
A part holds a random share of what one study measured. Positions count from the first letter of the parent shown.

Block 1 — technique: DHFR PCA, deep sequencing; sample: yeast; together with: (+)-ABA 200 µM; relative to: wild-type fitted maximum; reading: higher = stronger binding
Target: ABI1, truncated, D143A, DHFR fusion (Arabidopsis thaliana)
Setting: methotrexate growth selection, single substitutions
Starting sequence: PYL1, truncated, DHFR fusion (Arabidopsis thaliana); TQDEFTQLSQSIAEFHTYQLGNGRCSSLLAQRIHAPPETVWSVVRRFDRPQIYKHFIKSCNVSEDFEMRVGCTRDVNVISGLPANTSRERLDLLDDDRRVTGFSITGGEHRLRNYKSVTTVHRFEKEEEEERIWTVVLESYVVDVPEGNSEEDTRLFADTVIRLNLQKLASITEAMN; partner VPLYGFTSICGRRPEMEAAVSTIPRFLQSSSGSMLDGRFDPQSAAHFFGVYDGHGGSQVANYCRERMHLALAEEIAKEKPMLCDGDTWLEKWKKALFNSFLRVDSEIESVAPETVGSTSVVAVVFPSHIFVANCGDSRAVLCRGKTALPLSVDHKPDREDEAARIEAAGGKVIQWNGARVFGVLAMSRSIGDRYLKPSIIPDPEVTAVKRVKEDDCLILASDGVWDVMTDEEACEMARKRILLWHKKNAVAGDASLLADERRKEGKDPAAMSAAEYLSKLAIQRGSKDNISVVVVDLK
Substitution	relative binding score [%]
E139C	91.7
E109N	110
Y141G	-2.64
K168P	2.8
R45L	1.6
V76D	-7.68
L8M	90.6
P37I	94
S80Q	53
D159K	45.7
E151I	94.4

Block 2 — technique: protein-binding microarray; molecule type: double-stranded DNA, one strand shown; sample: in vitro; tested at: 0.8 µM; setting: whole 60-bp probe, no competitor; reading: higher = stronger binding; shared flanks, not repeated: … GTCTTGATTCGCTTGACGCTGCTG
Target: Centromere-binding protein 1, full length, N-terminal tag (CBF1, Saccharomyces cerevisiae, UniProt P17106, residues 1-351)
Sequence of UniProt P17106 (whole entry, looked up): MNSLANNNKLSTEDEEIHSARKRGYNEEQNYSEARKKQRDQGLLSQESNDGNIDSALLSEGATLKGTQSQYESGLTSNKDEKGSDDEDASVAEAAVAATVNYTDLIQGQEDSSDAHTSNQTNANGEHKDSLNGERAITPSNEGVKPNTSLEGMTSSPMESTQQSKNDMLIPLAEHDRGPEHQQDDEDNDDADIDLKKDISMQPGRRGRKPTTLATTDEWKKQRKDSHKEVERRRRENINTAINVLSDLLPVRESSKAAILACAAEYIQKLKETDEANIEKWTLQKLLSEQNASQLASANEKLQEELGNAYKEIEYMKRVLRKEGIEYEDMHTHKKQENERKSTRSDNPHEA
Sequence	fluorescence intensity [a.u.]
CTAAACACTAAGCGTTATGTGACCAATGTATAATTC	527
GAAAAGTAGATTCTCCTGATGACCCATTCATGATAG	486
CTATTCCTCTTTTAGCTCGTCAGCTCTGGTTGGTTC	516
CTAGAAATGCAACAACTCATGATGTAATAGGATTTC	521
GAATTGATCACTTTACACGTCAAGGTCAAAACATAG	558
CTAGTTCGAGAACGTCAGGCATGATAGATGGTTTTC	531
CCTAACTACTATAATTTCATGACATAGCTTCGTACA	548
CTAGCGGGTTGAATCCACGTTAACGTTCCACTATTC	513
GAAGAGGCGTAAAGTAGTCTCATGAAGTAGATGTAG	541
GAAGAACATCATCGTCACCATATCACTGAGAAATAG	596
TGTACGAAGCTATATGCACGTGTTATAGTAGTTAGG	8930
CTACAGTGGATCACCCACGTCATTTATCCGAAGTTC	555
CTAAGTATCGCGCTGCACGAGCGTGACGGCGGTTTC	720
GAATGCAAAGCGCATCAGATCATTAGGTGTGTCTAG	506
GAAAGATCTTTCTGCCTGATGAAAGAAAATCCTTAG	509
GAAAATCAAACTGTTTACGTGACATTGTACAATTAG	613
GAACGTGAATGTATACACGTGACCCTAATGCTCTAG	15700

Block 3 — technique: Sort-seq; refers to: YFP reporter; sample: E. coli; setting: PhoQ-PhoP variant library; together with: 10 µM Mg2+; relative to: high Mg2+ state; reading: higher = stronger signaling
Substance: PhoQ, residues 284 288 289 292 302 303 QWQEDG
target	fold induction
PhoP, residues 12 14 15 18 19 NQCAL (Escherichia coli, UniProt P23836)	15.7
PhoP, residues 12 14 15 18 19 TQAML (Escherichia coli, UniProt P23836)	8.52
PhoP, residues 12 14 15 18 19 LHTVL (Escherichia coli, UniProt P23836)	24.7

Block 4 — target: CCNF, cyclin fold, Cln2 fusion (human); technique: yeast growth competition, sequencing; sample: yeast; setting: strong parent motif; relative to: not given; reading: higher = stronger binding
Starting sequence: RBL1 docking peptide (human); GSAKRRLFGEDPP; partner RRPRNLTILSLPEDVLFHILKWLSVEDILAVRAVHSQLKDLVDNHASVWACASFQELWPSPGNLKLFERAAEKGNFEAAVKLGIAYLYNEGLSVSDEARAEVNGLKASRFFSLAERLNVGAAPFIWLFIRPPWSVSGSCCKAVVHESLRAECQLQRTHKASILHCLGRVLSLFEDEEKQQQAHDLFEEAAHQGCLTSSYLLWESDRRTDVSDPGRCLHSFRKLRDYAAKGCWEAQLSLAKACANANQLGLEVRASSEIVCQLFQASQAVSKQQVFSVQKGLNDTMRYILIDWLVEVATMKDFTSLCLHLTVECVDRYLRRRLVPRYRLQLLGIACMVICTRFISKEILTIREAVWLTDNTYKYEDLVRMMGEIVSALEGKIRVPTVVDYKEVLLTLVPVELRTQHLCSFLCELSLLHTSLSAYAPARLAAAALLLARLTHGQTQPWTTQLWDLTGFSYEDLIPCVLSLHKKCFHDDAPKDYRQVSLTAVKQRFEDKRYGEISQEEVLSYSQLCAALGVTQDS
Substitution	normalised enrichment score
FSAKRRLFGEDPP [G1F]	10.8
GSAKRRLAGEDPP [F8A]	0.408
GSAKRRLFGEDPR [P13R]	6.94
GSRKRRLFGEDPP [A3R]	1.79
GSAKRLLFGEDPP [R6L]	2.86
GSAKVRLFGEDPP [R5V]	0.714
GSALRRLFGEDPP [K4L]	0.924
GSAKRRLFMEDPP [G9M]	8.98
GSARRRLFGEDPP [K4R]	8.81
GSAKRHLFGEDPP [R6H]	3.52
GAAKRRLFGEDPP [S2A]	5.47
GSAKRRLKGEDPP [F8K]	1.44
GSAKRRLFGEWPP [D11W]	8.26

For quick reference, copied from above (block 1):
Substitution	relative binding score [%]
S80Q	53
K168P	2.8
L8M	90.6
P37I	94
E109N	110
R45L	1.6
